Results pooled from the literature.
Every numbered part comes from another study and shows a few of its results, in no order. Substitutions count along the parent as printed.

Series 1 — target: CCNE2, cyclin fold, Cln2 fusion (human); method: yeast growth competition, sequencing; sample: yeast; setting: strong parent motif; relative to: not given; reading: higher = stronger binding; quantity: normalised enrichment score; parent: viral docking peptide; KGVKRKLFAEDSS
S12N: 6.96
A9M: 7.04
S12I: 6.95
A9N: 6.19
A9V: 7.25
S12P: 7.01
S12D: 7.16
F8Y: 1.83
V3M: 1.07
G2R: 6.34
E10P: 5.87
K1A: 6.17
R5M: 0.713
L7I: 2.03
G2M: 5.51
R5V: 0.631
G2P: 6.93

Series 2 — method: protein-binding microarray; form: double-stranded DNA, one strand shown; sample: in vitro; tested at: 940 nM top; setting: 60-bp whole probe; added: salmon DNA 0.4 mg/ml; relative to: random background probes; reading: higher = stronger binding; quantity: fitted relative affinity; constant ends, left off below: GCCTAGCAC … GTCTTGATTCGCTTGACGCTGCTG
Target: Interferon regulatory factor 5, full length, phosphomimetic (IRF5, Homo sapiens, UniProt Q13568-2, residues 1-514, S451D/S453D/S456D/S462D)
TTAGGTTTCGGTCTCGGTTAGTGCTAG: 14.5 z-score
GACGATATCGGTCTCGAGACGTGCTAG: 0.939 z-score
GACGGTATCCTTCTCCTGTCGTGCTAG: 1.49 z-score
GACAATTTCAGTATCGAGACGTGCTAG: 2.95 z-score
AGCAGTTGGACCTCTCAGCCAGTGCTA: -0.373 z-score
GACTGTTTCGACACTGGGGACGTGCTA: 2.83 z-score
TCAAGTTTCTCCTTTGTACTGTGCTAG: 3.1 z-score
GACGGTCACCTTTTCCTGACGTGCTAG: 0.471 z-score

Series 3 — effect on: peptide-MHC binding; form: peptide; tested at: concentration not given; quantity: binding
Target: HLA class I histocompatibility antigen, A alpha chain, allele A*80:01 (Homo sapiens, UniProt P04439)
RTLGVFRYK: inactive
IIRVTSELL: inactive
WAKLLKQKW: inactive

Series 4 — target: FOSL2, bZIP domain (human); method: DHFR protein complementation; sample: yeast; relative to: wild-type JUN-FOS pair; reading: higher = stronger binding; quantity: binding fitness
Setting: single substitutions, most at no-binding floor
Parent: JUN, bZIP domain (human); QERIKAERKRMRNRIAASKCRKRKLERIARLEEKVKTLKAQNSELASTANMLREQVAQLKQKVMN; partner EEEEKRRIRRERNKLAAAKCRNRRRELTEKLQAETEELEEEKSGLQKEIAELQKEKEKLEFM
E33W: -0.119 natural log
M51L: 0.107 natural log
V56Q: -0.97 natural log
E33T: -0.0905 natural log
Q55L: -0.0691 natural log
A49K: 0.0117 natural log
Q41K: -0.121 natural log
Q41V: -0.0257 natural log

Some of these lines once more (series 1):
A9M: 7.04
S12I: 6.95
